Assay results from different studies.
Lines come from different studies, so protocols differ.
Target: Ephrin type-A receptor 3 (EPHA3, Homo sapiens, UniProt P29320)

Under “activity vs control”, `O=C(Cc1ccc(OCc2ccccc2)cc1)NC1(C(=O)O)CCN(C(=O)c2ccc(-c3cccc(Cl)c3)cc2)CC1` is recorded as 85% (enzyme activity, inhibitor; 10 µM).
`Nc1ncc2c(n1)-c1c([nH]c3ccc(C4=CCOCC4)cc13)CCC2` gave a remaining binding of 61% (binding, competition with immobilised ligand; 1 µM).
`CNC(=O)C1CCN(c2cc(C)c(F)cc2NC(=O)c2ccc(-c3cc(O)ccc3C)c(C)c2)CC1` gave a remaining binding of 30% (binding, competition with immobilised ligand; 1 µM).
`NC(=O)C[C@H]1CCc2sc3ncnc(O[C@H]4CC[C@H](N5CCOCC5)CC4)c3c21` gave an inhibition of 9% (enzyme activity, inhibitor; 10 µM).
With `CCN1CCN(Cc2ccc(NC(=O)c3ccc(C)c(NC(=O)c4cncc(-c5cccs5)c4)c3)cc2C(F)(F)F)CC1` the remaining binding was 0.1% (binding, competition with immobilised ligand; 1 µM).
The inhibition of `Cc1cccc(O[C@H]2CCC[C@@H](C(C)CNCc3ccncc3)C2)c1` (relative stereo) is reported as -3% (cell-free assay; 1 µM).
With `C=CC(=O)Nc1cccc(-c2cnc3[nH]cc(C(=O)NC(C)(C)C)c3n2)c1` the inhibition was -4% (enzyme activity, inhibitor; 0.1 µM).
With `COc1cc(Nc2nccc(-c3cnn4nc(OC)ccc34)n2)cc(C(F)(F)F)c1` the remaining binding was 100% (binding, competition with immobilised ligand; 1 µM).
`CN1CCN(Cc2ccc(-c3ccc(CO[C@H]4CCC[C@@H]4NC(=O)c4cc(-c5cnn(C)c5)cnc4N)cc3)cc2)CC1` gave an inhibition of 4% (enzyme activity, inhibitor; 0.1 µM).
`Cc1cnc2nc1Nc1cccc(c1)COC/C=C/COCc1cc(ccc1OCCN1CCOCC1)N2` has a remaining binding of 72% (binding; 0.1 µM).
`O=C=[N][Ru-4]123([n]4c5ccc(O)cc5c5c6c(c7cc(F)c[n+]1c7c54)C(=O)NC6=O)[S+]1CC[S+]2CC[S+]3CC1` (stereo not drawn) has a remaining activity of 115% (enzyme activity; 100 nM, human enzyme, together with: 10 µM ATP; baseline: untreated).
For `CC(C)=CC1OC(C)(C)C2C=C3C(=O)C(Cl)=CC(O)C3C3C(O)C4OC4C(=O)C132` (stereo not drawn), the remaining binding was 90% (cell-free assay, competition with immobilised ligand; 10 µM).
`C=CC(=O)N1Cc2nc(-c3cc(-c4cc(Cl)cnc4Cl)c(F)cc3F)n(-c3ccncn3)c2C1` gave an inhibition of -2.5% (cell-free assay; 1 µM).
`C=CC(=O)N1CCCC(n2c(=O)c3ncccc3n(Cc3ccc(Oc4ccccc4)cc3)c2=O)C1` (stereo not drawn) has a remaining binding of 100% (cell-free assay, competition with immobilised ligand; 1 µM).
With `Cc1ccc(-c2c(/C=C(\C#N)C(=O)NC(C)C)n(CCCO)c3ncnc(N)c23)cc1` the remaining binding was 78% (cell-free assay, competition with immobilised ligand; 1 µM).

Excerpt of the above:
`C=CC(=O)N1Cc2nc(-c3cc(-c4cc(Cl)cnc4Cl)c(F)cc3F)n(-c3ccncn3)c2C1` gave an inhibition of -2.5% (cell-free assay; 1 µM).
